Results of several laboratories.
Every numbered part comes from another study and shows a few of its results, in no order. Substitutions count along the parent as printed.

Block 1
Target: Histone acetyltransferase KAT6A, winged helix 2, GST fusion (KAT6A, Homo sapiens, UniProt Q92794, residues 85-181)
Method: protein binding microarray
Molecule type: double-stranded DNA, one strand shown
Medium: in vitro
Concentration: not given
Setting: 8-mer, flanks averaged, mean of 2 arrays, mostly near background
Relative to: not given
Reading: higher = stronger binding
Construct (chain): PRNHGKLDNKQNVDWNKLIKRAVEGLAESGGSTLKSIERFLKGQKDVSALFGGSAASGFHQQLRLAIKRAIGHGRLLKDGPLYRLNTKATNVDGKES
Sequence	E-score
CATTCACA	-0.111
GGCTGCTA	0.0561
ACCCGGGA	0.231
ATCCTAGA	-0.136
CGCTTCAA	-0.00546
AACTTTAC	-0.0271
CTGACAAC	0.127
AAATATTG	0.0122
CTGGAGGA	0.00984
TACAAGTA	-0.147
CCCGCCTC	0.116
GATGAGGC	-0.137
AAAGAATA	0.0494
CGGACGTC	0.105
CACGTTGA	-0.0827
AACCGACG	0.25
CGAAGCTA	0.0563
CAGTCCTC	-0.164
AACTCCTA	-0.0205
GATGAGAC	0.00337
ATCCTGAC	-0.0526
ATTAATCC	0.0808
ATAAGCGC	-0.0677
ACGTGCGG	-0.137
ATGCAGCC	0.0862

Block 2
Target: RNA binding protein fox-1 homolog 2, RRM domain, GST-SBP tag (RBFOX2, Homo sapiens, UniProt O43251-10, residues 100-194)
Method: RNA Bind-n-Seq
Molecule type: RNA
Medium: in vitro
Concentration: 365 nM
Setting: natural RNA segment, single round, ends assumed
Relative to: no-protein control
Reading: higher = stronger binding
Target sequence (chain): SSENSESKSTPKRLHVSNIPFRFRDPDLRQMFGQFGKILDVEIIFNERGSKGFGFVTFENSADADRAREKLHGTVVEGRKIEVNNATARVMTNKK
Sequence	RBNS enrichment (R)
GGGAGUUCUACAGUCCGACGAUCUUUUUAAGAAUUCUGUACUUCCAAUUUAUAAUGAAUACUUUCUUAGAUUUUAGGUAGGAGGGGAGCAGAGGAAUUAUGAACUGGGGUAAACCCAUUUUGAAUAUUAGCAUUGGAAUUCUCGGGUGCCAA	0.637
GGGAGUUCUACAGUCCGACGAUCUGCUAUGGCCUGGUGUGUAAUGGGUUAAACAAUAAGCCACUGCCUGACACCCACAUCCACUUUAGCCAUGUGUGACUCCCUAACAUUCCAAUCCUCUACCAUCCUGCAGCUGGAAUUCUCGGGUGCCAA	0.73
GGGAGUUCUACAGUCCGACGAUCGUGCAAAUCAACCUGAUGAUUUUAAUUGGCAGGGGAUAAUGGUAGCUUUCAAAUCAUUGGAAGGGGAAAAGGAUGUCUUAGGAUUAUUUUCUUUCUUGUAGUAGUUGAGAUGGAAUUCUCGGGUGCCAA	0.336
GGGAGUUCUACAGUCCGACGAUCUCCCGGCCUGGGCCUGGGCUCCUAACACCUGACUGCCAAAGGGCUCCAAUGUGCAUUGUGGACUCGCCAGAGUAGCCUGCAUUGAGACUCCAAGAAAACAGAAGCUAUGUUGGAAUUCUCGGGUGCCAA	0.551
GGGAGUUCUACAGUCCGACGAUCACUGUUAGCCAAACAUUUUGCCUGUUUUCUGUCUCCAGAUGUGUGAUAAUUGGUGUGAGGUUGAAAUCCCUGGUUCCUGGAGGACAGACAACCUGACCUCCGACUGUCAGUGGAAUUCUCGGGUGCCAA	0.99
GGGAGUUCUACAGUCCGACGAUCCACCAGCCUGAACCAUUUGGUACCUGGUGUUAACUGGAGUCCUGUUUACAAGGUGGAGUCGGGGCUUGCUGACUUCUCUUCAUUUGAGGUCACAUUUUUCCCCCGUGGGGUGGAAUUCUCGGGUGCCAA	0.241
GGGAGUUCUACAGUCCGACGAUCGCCCAAUGCAAAAUCGAUGAAAUGGGGAGUUCUCUGGGCCAGGCCACAUUCACAUUCCCCUCCCCCUGUGGUCCAGUGAAGCCUCCGGACCCCAGGCUCUGCUCUGCCCUUGGAAUUCUCGGGUGCCAA	0.356
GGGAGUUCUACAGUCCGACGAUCAUAAGCACAGACAUGUGGAAAGUGCCUGACACAAAGCAGGUGCUCAAUAAAAGAGAGCUAUUGAAGUGUAUUUGUUGUUUUCUUGCUUAAAAACAAGGAUUCUUGGGGGUUGGAAUUCUCGGGUGCCAA	0.477
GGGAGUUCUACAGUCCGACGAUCGCUCUUUCCUCCUUCCCCCUGGGCUGACCAAAAAUGUGCUAUCUACUGUGAGCCCCUUUCCCAAGACCCUGGGGGACGGAGAGACCAUGGAGUGAAUGUAAAAAUGCCACUGGAAUUCUCGGGUGCCAA	0.397
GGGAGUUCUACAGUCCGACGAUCGCCCUUGGGCCACCCCUCCUAGUUUGGGAGGAGCAGAUUUUUGCAAUACCAAGUAUAGCCUAUGGCAGAAAAAAUGUCUGUAAAUAUGUUUUUAAAGGUGGAUUUUGUUUUGGAAUUCUCGGGUGCCAA	0.419
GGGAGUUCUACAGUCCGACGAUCCCUAUAAGGGACAAGAGAAGGCCUGCCCAGCAUAGCACAAACAAGGAAAUAAAUAGGUGUUGGCAGGGCCAUGCUUGGGGCACCGCUCCCUGCUUCCUUCUUUCUAGUUUUGGAAUUCUCGGGUGCCAA	1.08
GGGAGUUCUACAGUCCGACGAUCGCUCUACGCGGCCCUGCCUGAGAGGCUCUACGUGAUACAGGAGGGCAGGAUCUGCUACAAGGGUAAAGCUGGCCCUUGGAACUACAAUCCUGAGGAAGUCCGAGCUGUCCUGGAAUUCUCGGGUGCCAA	0.295

Block 3
Target: CCNA2, cyclin fold, Cln2 fusion (human)
Method: yeast growth competition, sequencing
Medium: yeast
Setting: strong parent motif
Relative to: not given
Reading: higher = stronger binding
Parent: SAMHD1 docking peptide (human); ASKSRVQLFKDDP; partner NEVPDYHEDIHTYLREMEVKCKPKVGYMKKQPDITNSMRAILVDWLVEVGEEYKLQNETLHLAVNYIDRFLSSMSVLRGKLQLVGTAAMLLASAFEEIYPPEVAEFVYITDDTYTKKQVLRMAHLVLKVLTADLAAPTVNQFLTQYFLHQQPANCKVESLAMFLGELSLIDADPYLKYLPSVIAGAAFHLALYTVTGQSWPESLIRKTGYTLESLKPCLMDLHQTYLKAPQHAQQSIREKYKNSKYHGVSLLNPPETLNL
Substitution	normalised enrichment score
ASKSRVQLFIDDP [K10I]	1.69
ASKSRTQLFKDDP [V6T]	1.76
ASKSRSQLFKDDP [V6S]	0.00266
ASKSYVQLFKDDP [R5Y]	0.256
ASKSSVQLFKDDP [R5S]	0.0404
ASKSRVQLFYDDP [K10Y]	1.72
ASKSRVQLFKDKP [D12K]	2.57
ASKSRNQLFKDDP [V6N]	0.259
ASKSRVQLQKDDP [F9Q]	0.0969
ALKSRVQLFKDDP [S2L]	3.03
ASKSRVKLFKDDP [Q7K]	2.5
ASKSRVQLFKDYP [D12Y]	3.59
AMKSRVQLFKDDP [S2M]	3.3
ASKSRVQGFKDDP [L8G]	0.386
ASKSRVQLFKMDP [D11M]	1.89
ACKSRVQLFKDDP [S2C]	3.94
ASKSRVSLFKDDP [Q7S]	0.876
ASKSRVQLFKSDP [D11S]	2.26
ASKSRVALFKDDP [Q7A]	1.56
ASKSRRQLFKDDP [V6R]	6.41
ASKSRVQLFKEDP [D11E]	3.23
ASKSRVQLFKDMP [D12M]	2.96
ASKSRVQLFKDAP [D12A]	2.82
ASKSRVQLFKNDP [D11N]	2.47

Block 4
Target: RING finger protein unkempt homolog, zinc fingers 1-6, GST-SBP tag (UNK, Homo sapiens, UniProt Q9C0B0, residues 30-357)
Chain of UniProt Q9C0B0 (30-357, looked up): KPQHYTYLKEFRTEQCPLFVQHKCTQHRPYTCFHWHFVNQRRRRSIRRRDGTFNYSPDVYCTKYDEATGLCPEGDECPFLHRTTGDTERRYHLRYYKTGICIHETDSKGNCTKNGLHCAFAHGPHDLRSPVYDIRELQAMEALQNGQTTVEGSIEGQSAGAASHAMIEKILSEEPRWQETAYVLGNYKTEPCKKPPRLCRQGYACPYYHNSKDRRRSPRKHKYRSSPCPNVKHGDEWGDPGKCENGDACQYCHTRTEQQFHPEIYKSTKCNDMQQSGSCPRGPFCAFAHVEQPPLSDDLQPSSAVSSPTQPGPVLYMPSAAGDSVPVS
Method: RNA Bind-n-Seq
Molecule type: RNA
Medium: in vitro
Concentration: not given
Setting: RNA with constant flanks, human and mouse sites, ends assumed
Relative to: input RNA pool
Reading: higher = stronger binding
Sequence	bound/input enrichment [ratio]
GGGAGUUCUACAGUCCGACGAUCCUAACUUGCGCAGAAAACAAGAUGAGAUUGGCAUGGCUUUAUUUGUUUUUUUUGUUUUGUUUUGGUUUUUUUUUUUUUUUUGGCUUGACUCAGGAUUUAAAAACUGGAACGGUGAAGGUGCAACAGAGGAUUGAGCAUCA	0.722
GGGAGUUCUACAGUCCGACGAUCACACAGGAAUAAGCUUUCUUCUACCAAACACAUUCCCCCAUCUGGAGGGAGAGCUCCCCUAGUCCCUCCCCGCCCUCUGUCAUUUUGUUAAUGACAGGAUAGGCUGCUCCUGUGACUUACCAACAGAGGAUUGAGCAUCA	0.707
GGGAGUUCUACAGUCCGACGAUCUAGAUUGUAUCGCUAAUUUUUACUUUUUAAAAAUUCAUUUAUGUGUGUAUUGUUUGCAUGUUAGGUGUGGGUAUGUGCAGACUAGAGGACUGUGGGAAUCACUUGGAGGUAGUUAUUACACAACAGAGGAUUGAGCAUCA	2.65
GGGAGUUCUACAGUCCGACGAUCAGCAGCCAUCUUAUCAACCUUCUGAACCCCAAAGGAAAGCCAGCAAACCAGCUGCUUGCUCUUAGGACUUUUUGCAAUUGCUUUGUUAGUCAGGCAGGACAAAAGCUCAUGAUGUCCCAGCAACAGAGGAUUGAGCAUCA	0.329
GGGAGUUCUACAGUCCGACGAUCUACAGAUAGUACCAUUAAGAUGAGUUUUCAGGGGUCUAGGGAAGUUAAGGGUGGGAGGGUAUUAGGUAAGGGAGAUAGACGUUUAGAGAUGUGUUAAGUUAGAAAUCAGAUUGAUGCAAGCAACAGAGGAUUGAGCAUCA	56.8
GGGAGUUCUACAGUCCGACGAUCCUUCCUGAUUCCCCACCCUGCAAAGGCCUGGAACUGGCUGUGGGGCUCUGAGGCAUGCUGAAGGACAAAAGGUUACAGAGAUCCGACUUCAAAAGGCAGGGUCUGAGUCUGGCAGGUGGACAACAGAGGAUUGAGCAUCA	0.389
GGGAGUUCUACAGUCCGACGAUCAAGUUCUAGAAGGCAUUAUACAAGGUCACGAUCACGAUCUCGCUCGCAUAGACGAUCCCGGAGCAGGUCUUACAGCCGAGAUUAUCGCAGGCGCCACAGCCACAGCCAUUCUCCCAUGUCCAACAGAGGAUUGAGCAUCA	0.209
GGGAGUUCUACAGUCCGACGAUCGGACUGGAGUACCUUGCGUGCAGUUAUGUCGGCGUCGGUAGUGUCUGUCAUUUCGCGGUUCUUAGAAGAGUACUUGAGCUCCACUCCGCAGCGUCUGAAGUUGCUGGACGCGUACCUGCUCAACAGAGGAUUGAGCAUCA	0.125
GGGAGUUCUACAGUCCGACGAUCUUGGAUUCAUUAGCAGAAAGUCCUGAAUCAGAUUUUAUGUCUGCUGUGAAUGAGUUUGUAAUAGAAGAAAAUUUGUCGUCUCCUAAUCCUAUAAGUGAUCCACAAAGCCCAGAAAUGAUGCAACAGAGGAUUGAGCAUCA	0.491
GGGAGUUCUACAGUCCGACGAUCGUGUGCUCUGAGGGAGGGUCCGAGCCAGCCGCUGUUUUGCCGGAGGAGCCCCUCAGGCCGUAGUAAGCAUUAAUAAUGUCUUUCAUCUUUGAGUGGAUCUACAAUGGCUUCAGCAGUGUGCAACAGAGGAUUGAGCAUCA	0.25
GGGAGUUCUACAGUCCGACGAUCAAUACUACUUCAUGCCAUCCCAGGUUGGAAUCGCAACUCCCAACUCUCCCUAACUAAACCAUAUACAGUGAAAGUGAAAAAAGGCUCUCAAGAAGGAAGGGAGGCCACUGCUGAAAAGUACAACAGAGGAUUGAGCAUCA	0.288
